Measurements from different studies.
Parts stem from different laboratories: compare values within a part only. Substitutions count along the parent as printed.

Block 1
Target: ABI1, truncated, D143A, DHFR fusion (Arabidopsis thaliana)
Technique: DHFR PCA, deep sequencing
Matrix: yeast
Setting: methotrexate growth selection, single substitutions
Added: (+)-ABA 17 µM
Reference: wild-type fitted maximum
Direction: higher = stronger binding
Parent: PYL1, truncated, DHFR fusion (Arabidopsis thaliana); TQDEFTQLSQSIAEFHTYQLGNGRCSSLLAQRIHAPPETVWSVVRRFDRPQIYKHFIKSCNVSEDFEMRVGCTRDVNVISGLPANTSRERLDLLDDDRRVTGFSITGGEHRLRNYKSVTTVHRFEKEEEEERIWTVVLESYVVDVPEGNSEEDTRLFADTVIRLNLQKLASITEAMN; partner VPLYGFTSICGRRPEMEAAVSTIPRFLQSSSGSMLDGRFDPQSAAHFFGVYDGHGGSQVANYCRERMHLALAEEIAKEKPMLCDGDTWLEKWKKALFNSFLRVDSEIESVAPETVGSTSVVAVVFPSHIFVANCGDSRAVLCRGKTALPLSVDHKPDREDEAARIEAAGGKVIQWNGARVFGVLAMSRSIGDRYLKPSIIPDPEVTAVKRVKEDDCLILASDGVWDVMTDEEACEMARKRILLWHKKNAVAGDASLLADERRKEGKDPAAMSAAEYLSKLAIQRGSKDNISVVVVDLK
Variant | relative binding score [%]
T73W | 71.4
R163C | 36.7
F157T | -15.9
D65C | 70.5
S11D | 82.6
C60S | 34.8
C25E | -4.55
R99T | 13.7

Block 2
Target: CCNA1, cyclin fold, Cln2 fusion (human)
Technique: yeast growth competition, sequencing
Matrix: yeast
Setting: weak parent motif
Reference: not given
Direction: higher = stronger binding
Parent: ORC1 docking peptide (human); PRARKRLELGNLG; partner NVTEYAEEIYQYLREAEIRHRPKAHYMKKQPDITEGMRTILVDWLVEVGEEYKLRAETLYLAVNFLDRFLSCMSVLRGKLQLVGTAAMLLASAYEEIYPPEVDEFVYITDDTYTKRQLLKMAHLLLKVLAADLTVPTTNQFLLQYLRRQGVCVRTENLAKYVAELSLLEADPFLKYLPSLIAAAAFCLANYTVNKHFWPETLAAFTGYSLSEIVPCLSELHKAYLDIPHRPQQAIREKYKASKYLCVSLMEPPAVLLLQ
Variant | normalised enrichment score
N11H | 0.496
G13W | -0.0899
L12S | 0.529
R6F | 0.385
R2F | 0.0848
L9V | 0.552
N11T | 0.46

Block 3
Target: Sal-like protein 4, full length isoform B (SALL4, Homo sapiens, UniProt Q9UJQ4-2, residues 1-616)
Technique: universal PBM
Form: double-stranded DNA, one strand shown
Matrix: in vitro
Tested at: not given
Setting: 8-mer, flanks averaged, mean of replicates
Direction: higher = stronger binding
Oligonucleotide | E-score
ACTAATCA | 0.246
AGCTCTGC | -0.258
AACCCCAG | -0.194
CAAACGAG | -0.0735
CGGCGGAA | -0.251
ATCGTCAC | 0.00937
ACTGTGAT | 0.00095
CTTGACTC | -0.163
AACTGAGA | 0.00111

Single results of other studies
Substance | target | assay | system | setting | scale | measurement | result
PhoQ, residues 284 288 289 292 302 303 SLCLSL | PhoP, residues 12 14 15 18 19 NQGLL (Escherichia coli, UniProt P23836) | Sort-seq, item: YFP reporter | E. coli | PhoQ-PhoP variant library, added: 10 µM Mg2+ | reference: high Mg2+ state, higher = stronger signaling | fold induction | 7.48

For quick reference, copied from above (block 3):
Oligonucleotide | E-score
AACCCCAG | -0.194
ACTGTGAT | 0.00095
CAAACGAG | -0.0735
ATCGTCAC | 0.00937
